# Experimental data collected from several papers.
# Parts stem from different laboratories: compare values within a part only.

# Study 1 — method: RNA Bind-n-Seq; molecule type: RNA; medium: in vitro; concentration: not given; baseline: input RNA pool; direction: higher = stronger binding
# Target: RING finger protein unkempt homolog, zinc fingers 1-6, GST-SBP tag (UNK, Homo sapiens, UniProt Q9C0B0, residues 30-357)
# Sequence of UniProt Q9C0B0 (30-357, looked up): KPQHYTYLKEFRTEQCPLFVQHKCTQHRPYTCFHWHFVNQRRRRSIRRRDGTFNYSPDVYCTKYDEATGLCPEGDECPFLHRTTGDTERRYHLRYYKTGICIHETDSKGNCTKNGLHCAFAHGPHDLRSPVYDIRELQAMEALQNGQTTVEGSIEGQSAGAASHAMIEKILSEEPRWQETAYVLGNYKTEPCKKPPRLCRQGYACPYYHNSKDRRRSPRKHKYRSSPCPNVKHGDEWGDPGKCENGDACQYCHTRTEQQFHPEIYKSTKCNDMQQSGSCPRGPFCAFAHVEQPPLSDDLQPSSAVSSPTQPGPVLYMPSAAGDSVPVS
# Notes: RNA with constant flanks, human and mouse sites, ends assumed
Sequence,bound/input enrichment [ratio]
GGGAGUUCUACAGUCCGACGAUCUCCUUGGACCCCAGUCAUAUAGGUGACCUGCAAAAAGCAGACACCAGUAGUCAAGGUGCUUUAGUGUUUCUCUCAAAGGACUACGAAAUAGAAAAUCAAAAUCCCCUGGCCUCUCCUACGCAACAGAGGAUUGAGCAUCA,2.35
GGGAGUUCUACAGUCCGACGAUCUUUGCCACAGGUGGUUCGGAUGGAUUCGUCAAUAUUUGGGACCCAUUUAACAAGAAGCGCCUGUGCCAGUUCCAUCGGUACCCCACCAGCAUCGCUUCCCUUGCCUUCAGUAAUGACGGACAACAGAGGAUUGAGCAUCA,0.15
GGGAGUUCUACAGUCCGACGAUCAGCCGUGAGGGAUACAGCAGUUUGGUCAAUAUUGUCUUAACAUGCUUCAAAUAAAUCAGAUGUUCUCAGUGCAGCUGAGUCUUGGUGAGCAGACAUGGGAAUCCGAAGGCAGCAGUAUAACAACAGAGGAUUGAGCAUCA,0.257
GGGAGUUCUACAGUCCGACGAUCCCAAAUGGUGUUAUCCCUUUUCAUGGAUUUUCAAUGUAUGUUGCACCACUUUGUUUUCUAUACCAUGAACCUUCCAAAUUGUAUCAGAUAUUCCGUGAGAUGUAUGUGCGUUUUUUCUUCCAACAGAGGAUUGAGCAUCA,0.187
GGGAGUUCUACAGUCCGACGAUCAAACAUAACAUAUCUUUAAAGCUUUUCUAUCUUCUUUUGAAAUUUGGACCAAUAAAAUUCUAGGUGAUAUGGAGGAUUGUAUUGCUCAACUUCUCAUAGUGAGACAACACGUAACAAAACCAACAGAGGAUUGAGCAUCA,4.62
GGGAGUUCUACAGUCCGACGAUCAAAGAACUACUUGCAGAGAUAGGUUCAUUAUCUCUUCAUUGUACCAUAGAUGAGAAGCGGUUAGCUGGCUAUUGUCAAGCGUGUGAUGUUCUUGUACCUUCUUCUGAUAAUAACUCUCAACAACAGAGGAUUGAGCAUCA,0.339
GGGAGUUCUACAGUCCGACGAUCGAAGGUUUUUCAGAAUCCAAGAAAAGGUCAUCAGAAGAUGAAAAUGAAAAUAAAAUAGAGUUUAGGAAGAAAGGAGGAUUUGAAGGGGGAGGAUUCCUUGGAAGAAAGAAAGUUCCCUAUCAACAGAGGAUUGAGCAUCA,3.19
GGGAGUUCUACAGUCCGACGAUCGCUGGGCAUAUAAUGGAAUUUUCUCAAGACCAGCAUGGCUCUAGAUUCAUUCAGCUGAAACUAGAGCGUGCCACAGCAGCUGAGCGCCAGCUUGUCUUCAAUGAAAUCCUCCAGGCUGCGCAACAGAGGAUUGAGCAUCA,0.153
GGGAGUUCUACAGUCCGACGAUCGGGCUCCGUGGCAAUGAAUUCUUCUGUGAAGUGGAUGAAGACUACAUCCAGGACAAAUUUAAUCUUACUGGACUCAAUGAGCAGGUCCCUCACUAUCGACAAGCUCUAGACAUGAUCUUGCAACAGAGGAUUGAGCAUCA,0.201
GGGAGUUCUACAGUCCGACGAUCGUCGGAGACCUGAGAGAUGUUAACCAAAUUCGAGACCAAGAGCGCGCGGGUCAAAGGGCUCAGCUUUCACCCCAAAAGACCUUGGAUCCUGACUAGUUUACAUAAUGGGGUCAUCCAGUUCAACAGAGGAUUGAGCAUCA,0.407
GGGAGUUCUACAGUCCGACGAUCACAUGCCAAUUGAGUGAAAAAUUUAUCAAAGCUGCCAUUGGCUGUGGUAUUGUAGAAAGCAUACUAAACUGGGUGAAGUUUAAGGCCCAAGUCCAGUUAAACAAGAAGUGUUCAGCUGUACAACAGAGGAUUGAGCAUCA,0.196

# Study 2 — method: protein-binding microarray; molecule type: double-stranded DNA, one strand shown; medium: in vitro; concentration: 2540 nM top; notes: 60-bp whole probe; together with: salmon DNA 0.4 mg/ml; baseline: random background probes; direction: higher = stronger binding; all sequences stand within: GCCTAGCAC … GTCTTGATTCGCTTGACGCTGCTG
# Target: Interferon regulatory factor 3, full length, phosphomimetic (IRF3, Homo sapiens, UniProt Q14653, residues 1-427, S386D/S396D/S398D/S402D/T404D/S405D)
# Target sequence (chain): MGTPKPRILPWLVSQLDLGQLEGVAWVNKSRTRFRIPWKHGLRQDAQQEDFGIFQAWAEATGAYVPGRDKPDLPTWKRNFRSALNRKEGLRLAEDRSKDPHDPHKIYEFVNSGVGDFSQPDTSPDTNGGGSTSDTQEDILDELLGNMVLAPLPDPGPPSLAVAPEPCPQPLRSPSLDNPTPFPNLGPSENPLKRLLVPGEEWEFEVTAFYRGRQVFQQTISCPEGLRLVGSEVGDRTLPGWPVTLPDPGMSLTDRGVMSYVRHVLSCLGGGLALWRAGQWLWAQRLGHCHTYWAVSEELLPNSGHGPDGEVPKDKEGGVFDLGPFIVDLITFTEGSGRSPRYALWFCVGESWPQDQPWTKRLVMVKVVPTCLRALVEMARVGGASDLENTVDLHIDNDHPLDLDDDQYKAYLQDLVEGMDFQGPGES
Sequence,fitted relative affinity
TTACAGCTATTTTTAGGATGGTGCTAG,-0.00589 z-score
CACGAACTGAGTATCGAGACGTGCTAG,0.125 z-score
GATGATATCGGGTTTCGAGACGTGCTA,0.931 z-score
GACGAACTGGGGACCGGAGACGTGCTA,-0.412 z-score
GACGTTATCGGTCTCGGGACGTGCTAG,2.12 z-score
GACGGACTCCTTCTCCTGACGTGCTAG,1.83 z-score
TTAGGTTTCGGACTGGGTTGGTGCTAG,4.03 z-score
TTAGGTCCCCTTATCCTTTAGTGCTAG,1.86 z-score
TTAGATGTCAGTTTCGATTAGTGCTAG,4 z-score
TTAGGTATCCTTTTCCTTGAGTGCTAG,7.98 z-score
GACGAACTGGTGACTGGAGACGTGCTA,-0.457 z-score
TCAACACTCACCATGGCACTGTGCTAG,-0.24 z-score
TTAGGTATCGGGATTGGGTTAGTGCTA,1.37 z-score
CACGGACTGGACTTTCGGGACGTGCTA,0.201 z-score
TCATTTTTGCTTTCTTTACTGTGCTAG,2.88 z-score
TTAGGTTTCGGATTTCGGTTAGTGCTA,7.69 z-score
TCACTTTTTGCACTCTCACTGTGCTAG,1.21 z-score
CAGAATCCAGCTCAGGTTGTGTGCTAG,0.644 z-score
TTAGCTCTCGGACTGGGTTAGTGCTAG,-0.699 z-score

# Study 3 — method: protein binding microarray; molecule type: double-stranded DNA, one strand shown; medium: in vitro; concentration: not given; baseline: not given; direction: higher = stronger binding
# Target: Histone acetyltransferase KAT6A, both winged helices, GST fusion (KAT6A, Homo sapiens, UniProt Q92794, residues 1-181)
# Notes: 8-mer, flanks averaged, mean of 2 arrays, mostly near background
# Residues (chain): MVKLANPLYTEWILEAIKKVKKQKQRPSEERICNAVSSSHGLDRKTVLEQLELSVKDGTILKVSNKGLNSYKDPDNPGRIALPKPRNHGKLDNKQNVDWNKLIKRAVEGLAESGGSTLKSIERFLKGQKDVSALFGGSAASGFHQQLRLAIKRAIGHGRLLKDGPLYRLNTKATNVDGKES
Sequence,E-score
AGGTCACA,-0.0573
CTACGGTA,0.0563
AGCATCGC,0.135
GCTTGTGA,-0.0653
CCTTTCAG,0.0333
AACTTGGA,-0.0305
CGGCACGA,0.136
ACTCGGAC,0.0517
AAATGATT,-0.0919
AATCAGAG,-0.061
GATGGGCC,-0.0618
CACCCTCG,-0.164
ATAGCCAG,-0.179
ACCATCCG,0.0438
GTTTGTGA,-0.0401
AAGGATTC,-0.11
GGACTGCA,-0.131

# Study 4 — method: RNA Bind-n-Seq; molecule type: RNA; medium: in vitro; concentration: 365 nM; baseline: no-protein control; direction: higher = stronger binding
# Target: RNA binding protein fox-1 homolog 2, RRM domain, GST-SBP tag (RBFOX2, Homo sapiens, UniProt O43251-10, residues 100-194)
# Notes: natural RNA segment, single round, ends assumed
# Residues (chain): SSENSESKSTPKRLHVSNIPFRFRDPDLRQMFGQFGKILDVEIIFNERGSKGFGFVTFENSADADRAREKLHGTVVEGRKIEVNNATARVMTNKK
Sequence,RBNS enrichment (R)
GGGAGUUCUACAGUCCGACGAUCGAAGGCCUGGGAACAGGAGUGUGCAGGCUGUCCUGAAGAGAGGCUGAGGACAGUGUGAAUAAUUGUAGCCUGACCUUUUGCAUUCUCCAGCUCAGCUGCUAGGAAGACUUUGGAAUUCUCGGGUGCCAA,0.578
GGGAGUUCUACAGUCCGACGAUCCUGGAUAUGUGACUGUUUUGUUCUCUGUAAAGUGUAUUCUUGGGAAGUGAUUGGUUUAUAUCAGAUUCAGAGGAGCCCAAUUAACUCCAGUGUAGGUAAUGUAAAACAGUUGGAAUUCUCGGGUGCCAA,0.443
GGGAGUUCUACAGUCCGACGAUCUUGCUGAAGUAGGGUCUGAGAGAACCCUGGCAUCAGCAGACCCAGGGUGCUUCUGUCUCCUGCAGACCACGCCAGGGAGUGCAGACACCACCGUCACACACGCCCCUUUUUGGAAUUCUCGGGUGCCAA,0.31
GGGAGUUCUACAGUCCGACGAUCGGCAGUGAGAGGAUAGGCACAGUGGACCGGGCAGGUGUCCACCAGCAGCUCAGCCCCUGCAGUCAUCUCAGAGCCCCUUCCCGGGCCUCUCCCCCAAGGCUCCCUGCCCCUGGAAUUCUCGGGUGCCAA,0.239
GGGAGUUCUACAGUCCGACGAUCUUGCUUUCAUAGCAUCUCAGACUACUUGGAACUCCAAGGACUGCCUAACUAAAGUACUUUCACAAACACUAACAUUCAGAAGGAUGUUGAGAAAGCAAGAUCUAAUCUGAUGGAAUUCUCGGGUGCCAA,0.433
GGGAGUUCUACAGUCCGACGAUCUUUCUCCUUUCUUCCAUUGCUUUGUCCCUCUUCCCCUGUGCUUCCUGCCUUCUUUCCCUGUCCCAUGGGCACAGUCCUCACAGGGAGUGGCCUCCUCUCUCCAGUGAUGUUGGAAUUCUCGGGUGCCAA,0.814
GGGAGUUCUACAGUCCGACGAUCUAGCCAUCAUAACUCACUAACAGGGAGAAGUAGCUAGUAGCAAUGUGCCUUGAUUGAUUAGAUAAAGAUUUCUAGUAGGCAGCAAAAGACCAAAUCUCAGUUGUUUGCUUUGGAAUUCUCGGGUGCCAA,0.384
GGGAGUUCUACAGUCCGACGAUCUCCAAACGGGACACAGCAAGACGAGACCGUUGACAGCCAGGACAGUAAUGCCAUUGCCGCCGUCAAGCAGUCACAGGUCACUGAAGAGGAGGCAGCUGCUGCUCAGACGGUGGAAUUCUCGGGUGCCAA,1.18
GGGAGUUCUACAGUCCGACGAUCUUGUCUUAAGAUGGAAAUACAGUUAUUUCAUCUUUUAUUCAAGGAAGUUUUAACUUUAAUACAGCUCAGUAAAUGGCUUCUUCUAGAAUGUAAAGUUAUGUAUUUAAAGUUGGAAUUCUCGGGUGCCAA,0.748
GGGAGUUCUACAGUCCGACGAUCUUUUCUCUUGCACUUCACUUGUAUGUUUUACUGUGGUGGAAAAAAUACUUCAACUGAUUAUCACACUUGAAAUGCUAAUUAUCAGUGGAAUUUGUCUCCUAUUCUUAAGUUGGAAUUCUCGGGUGCCAA,0.581
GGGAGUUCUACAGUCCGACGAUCAUUUAUUAUUUAUGUACAAUUUGGUGUUUGUAUUAGCUCUACUACAGUAAAUGACUGUAAAAUUGUCGUGGCUUACAACAACGUAUCUUUUUCGCUUAUAAUACAUUUUGUGGAAUUCUCGGGUGCCAA,0.629
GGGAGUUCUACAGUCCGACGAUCCCGGUCUAUGUCGAGAGCUGGCCAAAGAGCCUUUCCAAAGAGGAGCGAUGGGCCCCUGGCCCCGCCUGCCUGCCACCCUGCCCCUUGCCAUCCAUUCUGGAAACACCUGUUGGAAUUCUCGGGUGCCAA,0.894

# Repeated from above (study 3):
Sequence,E-score
ACCATCCG,0.0438
AACTTGGA,-0.0305
CCTTTCAG,0.0333
ATAGCCAG,-0.179
GTTTGTGA,-0.0401
AAATGATT,-0.0919
AATCAGAG,-0.061
CTACGGTA,0.0563
GCTTGTGA,-0.0653
CACCCTCG,-0.164
